Measurements gathered from unrelated publications.
A part holds a random share of what one study measured.
Sequence of UniProt Q16566 (whole entry, looked up): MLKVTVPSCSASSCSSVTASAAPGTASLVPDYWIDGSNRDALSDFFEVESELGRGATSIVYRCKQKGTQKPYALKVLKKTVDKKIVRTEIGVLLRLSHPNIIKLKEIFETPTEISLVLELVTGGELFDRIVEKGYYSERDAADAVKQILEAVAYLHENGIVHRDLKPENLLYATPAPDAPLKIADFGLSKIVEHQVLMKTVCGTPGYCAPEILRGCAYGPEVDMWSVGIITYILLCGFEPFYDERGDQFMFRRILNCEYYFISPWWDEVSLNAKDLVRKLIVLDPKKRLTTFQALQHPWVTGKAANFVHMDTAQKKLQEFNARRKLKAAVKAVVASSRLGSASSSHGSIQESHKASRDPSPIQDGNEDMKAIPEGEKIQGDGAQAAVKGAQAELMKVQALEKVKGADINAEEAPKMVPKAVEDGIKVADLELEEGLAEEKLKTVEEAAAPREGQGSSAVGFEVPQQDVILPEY
Sequence of UniProt Q8NG66 (whole entry, looked up): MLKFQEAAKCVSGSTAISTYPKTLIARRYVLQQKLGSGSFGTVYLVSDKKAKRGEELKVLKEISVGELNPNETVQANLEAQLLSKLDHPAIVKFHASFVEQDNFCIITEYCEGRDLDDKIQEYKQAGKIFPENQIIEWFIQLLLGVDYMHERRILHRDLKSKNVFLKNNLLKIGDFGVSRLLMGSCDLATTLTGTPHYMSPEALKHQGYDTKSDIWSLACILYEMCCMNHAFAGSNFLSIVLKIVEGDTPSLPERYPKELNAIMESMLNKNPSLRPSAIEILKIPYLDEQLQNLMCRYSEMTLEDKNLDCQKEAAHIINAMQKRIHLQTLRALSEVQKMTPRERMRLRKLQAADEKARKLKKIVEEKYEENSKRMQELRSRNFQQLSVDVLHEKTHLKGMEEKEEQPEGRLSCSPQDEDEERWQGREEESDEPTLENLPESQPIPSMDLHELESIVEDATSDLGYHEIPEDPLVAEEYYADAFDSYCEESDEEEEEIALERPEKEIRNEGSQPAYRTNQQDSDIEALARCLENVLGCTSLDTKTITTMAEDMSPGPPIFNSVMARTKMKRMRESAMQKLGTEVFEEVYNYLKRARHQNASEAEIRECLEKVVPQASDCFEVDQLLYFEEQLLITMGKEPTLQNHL
Sequence of UniProt O75914 (whole entry, looked up): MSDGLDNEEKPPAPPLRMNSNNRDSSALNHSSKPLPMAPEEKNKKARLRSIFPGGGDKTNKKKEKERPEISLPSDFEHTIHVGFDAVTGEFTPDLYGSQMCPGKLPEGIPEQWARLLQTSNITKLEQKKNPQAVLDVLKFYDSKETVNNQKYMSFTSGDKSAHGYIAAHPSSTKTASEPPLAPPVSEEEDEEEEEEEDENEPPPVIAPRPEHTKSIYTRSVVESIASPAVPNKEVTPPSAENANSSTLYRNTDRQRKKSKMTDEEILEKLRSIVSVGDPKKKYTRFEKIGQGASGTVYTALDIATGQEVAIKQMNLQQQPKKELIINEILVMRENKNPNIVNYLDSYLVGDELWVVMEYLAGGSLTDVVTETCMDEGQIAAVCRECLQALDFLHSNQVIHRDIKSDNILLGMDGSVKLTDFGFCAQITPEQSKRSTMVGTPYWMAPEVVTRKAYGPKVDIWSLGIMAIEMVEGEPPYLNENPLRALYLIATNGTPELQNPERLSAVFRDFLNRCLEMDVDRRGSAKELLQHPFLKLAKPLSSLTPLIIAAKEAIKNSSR
Sequence of UniProt P35968 (whole entry, looked up): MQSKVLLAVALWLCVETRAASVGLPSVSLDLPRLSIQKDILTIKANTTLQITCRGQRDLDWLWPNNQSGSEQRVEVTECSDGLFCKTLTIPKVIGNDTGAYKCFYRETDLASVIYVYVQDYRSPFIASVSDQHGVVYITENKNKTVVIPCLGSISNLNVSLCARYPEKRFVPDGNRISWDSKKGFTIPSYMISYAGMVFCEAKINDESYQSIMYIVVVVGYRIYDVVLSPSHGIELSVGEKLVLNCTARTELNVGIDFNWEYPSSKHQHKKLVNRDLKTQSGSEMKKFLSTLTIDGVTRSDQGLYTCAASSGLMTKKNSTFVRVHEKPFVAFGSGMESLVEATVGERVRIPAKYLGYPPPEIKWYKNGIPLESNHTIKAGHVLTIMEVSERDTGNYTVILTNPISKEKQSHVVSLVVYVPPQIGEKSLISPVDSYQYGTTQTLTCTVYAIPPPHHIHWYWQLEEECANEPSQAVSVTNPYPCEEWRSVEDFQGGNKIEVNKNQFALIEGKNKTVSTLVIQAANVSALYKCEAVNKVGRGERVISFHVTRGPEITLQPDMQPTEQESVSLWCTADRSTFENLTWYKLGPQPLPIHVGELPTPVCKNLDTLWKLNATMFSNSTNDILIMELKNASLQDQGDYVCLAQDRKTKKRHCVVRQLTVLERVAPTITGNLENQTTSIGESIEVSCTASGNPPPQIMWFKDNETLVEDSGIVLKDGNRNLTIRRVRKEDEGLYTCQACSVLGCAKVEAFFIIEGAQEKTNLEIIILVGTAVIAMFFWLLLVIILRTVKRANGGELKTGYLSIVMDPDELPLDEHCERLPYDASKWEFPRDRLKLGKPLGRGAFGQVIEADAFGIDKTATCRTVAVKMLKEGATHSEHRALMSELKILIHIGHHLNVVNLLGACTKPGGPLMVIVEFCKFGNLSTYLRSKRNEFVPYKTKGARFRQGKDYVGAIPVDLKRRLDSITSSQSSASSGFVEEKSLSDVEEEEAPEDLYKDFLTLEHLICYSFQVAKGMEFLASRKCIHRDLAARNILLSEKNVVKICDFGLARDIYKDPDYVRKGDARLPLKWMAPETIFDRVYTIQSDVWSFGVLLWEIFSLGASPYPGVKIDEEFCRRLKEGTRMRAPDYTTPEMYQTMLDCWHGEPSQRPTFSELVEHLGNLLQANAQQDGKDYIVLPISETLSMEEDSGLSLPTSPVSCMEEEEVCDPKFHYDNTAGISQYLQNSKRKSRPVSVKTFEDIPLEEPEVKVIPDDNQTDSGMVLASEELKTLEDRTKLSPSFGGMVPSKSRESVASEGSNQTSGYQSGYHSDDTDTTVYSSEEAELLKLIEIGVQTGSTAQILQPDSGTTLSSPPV
Sequence of UniProt P06493 (whole entry, looked up): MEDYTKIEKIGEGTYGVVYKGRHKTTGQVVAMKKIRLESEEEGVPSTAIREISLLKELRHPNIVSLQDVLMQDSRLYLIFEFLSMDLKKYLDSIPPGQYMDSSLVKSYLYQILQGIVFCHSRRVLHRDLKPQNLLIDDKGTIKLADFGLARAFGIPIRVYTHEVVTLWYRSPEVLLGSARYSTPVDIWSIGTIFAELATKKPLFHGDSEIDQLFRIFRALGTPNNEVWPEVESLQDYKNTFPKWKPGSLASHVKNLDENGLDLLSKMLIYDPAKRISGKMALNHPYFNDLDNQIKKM
Sequence of UniProt Q05655 (whole entry, looked up): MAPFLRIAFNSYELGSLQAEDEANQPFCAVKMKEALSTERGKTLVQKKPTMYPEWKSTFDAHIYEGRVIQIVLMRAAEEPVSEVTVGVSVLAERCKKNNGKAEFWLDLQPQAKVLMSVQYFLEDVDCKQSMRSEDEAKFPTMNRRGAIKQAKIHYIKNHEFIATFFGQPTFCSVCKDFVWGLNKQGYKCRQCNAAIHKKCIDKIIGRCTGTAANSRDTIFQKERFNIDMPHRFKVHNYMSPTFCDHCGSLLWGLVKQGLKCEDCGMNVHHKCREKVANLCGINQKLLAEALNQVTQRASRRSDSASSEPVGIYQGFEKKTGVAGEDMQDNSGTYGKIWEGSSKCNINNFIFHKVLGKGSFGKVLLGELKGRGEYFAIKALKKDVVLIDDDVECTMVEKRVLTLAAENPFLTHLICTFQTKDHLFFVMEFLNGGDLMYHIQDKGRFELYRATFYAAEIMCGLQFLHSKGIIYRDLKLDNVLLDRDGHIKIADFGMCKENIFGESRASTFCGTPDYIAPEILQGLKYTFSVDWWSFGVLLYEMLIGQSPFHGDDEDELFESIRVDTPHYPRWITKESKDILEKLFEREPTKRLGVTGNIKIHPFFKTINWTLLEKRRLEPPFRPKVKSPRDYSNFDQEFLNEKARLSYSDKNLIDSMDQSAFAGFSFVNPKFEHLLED

Series 1 — organism: Sarcocystis neurona; observed: parasite growth; tested at: 10 µM; time: 96 h; setting: first screen; reference: untreated; measurement: log2 fold change
NCCc1ccccn1: -0.53
C=CCN1CC[C@]23c4c5ccc(O)c4O[C@H]2C(=O)CC[C@@]3(O)[C@H]1C5: 0.17
NC(=NCc1ccc(Cl)cc1)SCCCc1cnc[nH]1: -0.34
C[C@]12CC[C@H](O)CC1=CC[C@@H]1[C@@H]2CC[C@]2(C)C(=O)CC[C@@H]12: -0.0122
Oc1ccc2c3c1O[C@H]1[C@@H](O)CC[C@@]4(O)[C@@H](C2)N(CC2CCC2)CC[C@]314: -0.1

Series 2 — observed: acetyl-histone H4 peptide binding; method: AlphaScreen displacement; tested at: 50 µM; measurement: inhibition
Target: Bromodomain-containing protein 4, BD1 (BRD4, Homo sapiens, UniProt O60885)
CCN1C(=O)NC(=O)C(=CNc2ccc(Cl)c(C(=O)O)c2)C1=O: 12.7%
CCCCN1C(=O)NC(=O)C(=C(C)Nc2cccc(C(=O)O)c2)C1=O: 4.6%
COc1ccc(N2C(=O)NC(=O)C(=CNc3ccc(F)cc3)C2=O)cc1: 12.6%
CN1C(=O)NC(=O)C(=NNc2ccc(Br)cc2)C1=O: 0.7%
COc1ccc(NC=C2C(=O)NC(=S)N(C)C2=O)cc1: 6.3%
COc1ccc2c(c1)/C(=C/c1cnc[nH]1)C(=O)N2: 51.1%

Series 3 — cell line: A-375; tested at: 100 µM; time: 36 h; measurement: viability
C[C@]12CC[C@H]3[C@@H](CCC4=CC(=O)CC[C@@]43C)[C@@H]1CC[C@@H]2OC(=O)CCc1ccccc1: 0.886%
CC(C)NCC(O)c1ccccc1Cl (stereo not drawn): 114%
COP(=O)(OC)C(O)C(Cl)(Cl)Cl (stereo not drawn): 73.2%
C[C@@H]1[C@H](O)[C@@H](C)/C=C/C=C/CC/C=C/C=C/C=C/C=C/[C@H](O[C@H]2O[C@@H](C)[C@H](O)[C@@H](N)[C@H]2O)C[C@@H]2O[C@](O)(C[C@@H](O)[C@H](O)CC[C@@H](O)C[C@@H](O)C[C@@H](O)CC(=O)O[C@H]1C)C[C@H](O)[C@H]2C(=O)O: 51%

Series 4 — observed: ligand displacement; tested at: 10 µM; measurement: inhibition
Target: D(1B) dopamine receptor (DRD5, Homo sapiens, UniProt P21918)
Sequence of UniProt P21918 (whole entry, looked up): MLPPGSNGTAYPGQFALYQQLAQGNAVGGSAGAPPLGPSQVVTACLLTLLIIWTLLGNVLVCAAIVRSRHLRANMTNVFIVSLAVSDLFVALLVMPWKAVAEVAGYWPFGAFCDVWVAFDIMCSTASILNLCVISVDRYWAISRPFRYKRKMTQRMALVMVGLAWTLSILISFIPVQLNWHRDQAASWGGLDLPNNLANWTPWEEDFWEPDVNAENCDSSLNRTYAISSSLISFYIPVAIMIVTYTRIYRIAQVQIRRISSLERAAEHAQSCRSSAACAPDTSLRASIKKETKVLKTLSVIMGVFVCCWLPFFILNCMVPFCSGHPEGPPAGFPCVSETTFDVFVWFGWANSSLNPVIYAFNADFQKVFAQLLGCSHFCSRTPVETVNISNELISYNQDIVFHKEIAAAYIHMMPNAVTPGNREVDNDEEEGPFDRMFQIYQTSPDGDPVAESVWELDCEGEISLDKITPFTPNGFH
COc1cc(-c2cn(C3CCc4c(F)cccc4N(CC(F)(F)F)C3=O)nn2)ccc1-n1cnc(C)c1 (stereo not drawn): -8.33%
Cc1ncc(-c2cc(Cl)ccc2F)cc1-n1c(=O)n(CC(N)=O)c2ccccc21: 6.12%
O=C1NC(c2ccccn2)Sc2ccccc21 (stereo not drawn): 11.2%
COc1cccc(NC(=O)c2nc3scc(CN(C)Cc4ccccc4)c3c(=O)[nH]2)c1: 2.81%
CC1CCN(c2ccnc(NCc3cn(C)cn3)n2)CC1: 5.03%
CN([C@@H]1CCc2c(CC(=O)O)c3ccccc3n2C1)S(=O)(=O)c1ccc(F)cc1: 1.94%
CCOc1ccc(S(=O)(=O)Nc2ccc(Cl)cc2C#Cc2cnc(C(=O)O)cc2OC)c2ncccc12: 47.7%
CN(C)c1ncnc(-c2ccc3nc(Nc4cc(CN5CCN(C(=O)CC(F)(F)F)CC5)ccn4)[nH]c3c2)c1Cl: -9.93%
C[C@H](c1ccc(F)cc1)N(Cc1cccc(C(=O)O)c1)C(=O)c1cnc2ccccc2c1: -1.69%
Cc1ccccc1Oc1cc(-n2c(=O)cc(C(F)(F)F)[nH]c2=O)c2ccccc2c1Cl: 18.7%
CC(=O)Nc1ncc(CN2CCC[C@H](Cc3cc(C)nc(C)c3)C2)s1: 7.69%
CO[C@H]1CC[C@H](CNc2ccc(S(=O)(=O)NC(=O)c3ccc(N4CCN(CC5=C(c6ccc(Cl)cc6)CC(C)(C)CC5)CC4)cc3Oc3cnc4[nH]ccc4c3)cc2[N+](=O)[O-])CC1: 34.1%
CNC(=N)NCCC[C@H](NC(=O)[C@H](CC(C)C)NC(=O)NNC(=O)[C@H](Cc1ccccc1)NC(=O)[C@H](CO)NC(=O)[C@H](CC(N)=O)NC(=O)[C@@H](Cc1ccncc1)NC(=O)[C@H](N)Cc1ccc(O)cc1)C(=O)N[C@@H](Cc1ccccc1)C(N)=O: 0.512%
NS(=O)(=O)c1cc(NC(=O)Cc2ccccc2)ccc1Oc1cccc(Cl)c1: 27.7%
O=S(=O)(NC1CCC(c2cc(F)ccc2F)(S(=O)(=O)c2ccc(Cl)cc2)CC1)C(F)(F)F (stereo not drawn): 11.3%
N#CC1(c2ccccn2)CCN(Cc2cc(C(=O)N3CCCC3)c(=O)n3ccccc23)CC1: -18.3%
CCC(=NO)C(C)=Cc1ccc(F)c(C)c1: 11.8%
Cc1ccc(-c2cnc([C@@]3(O)CC[C@H](C(=O)O)C(C)(C)C3)s2)cc1Nc1cccc(C(F)(F)F)n1: 18.6%
CN1CCN(C(=O)C(C)(C)c2ccc(C(=O)Nc3cn4cc(-c5cc(C(C)(C)C)cc(C(C)(C)C)c5)ccc4n3)cc2)CC1: 29.7%
C[C@@H](c1cccc(C#N)c1)n1cc(Cl)cc(C(N)=O)c1=N: 16.1%
CCc1ccccc1C(=O)Nc1n[nH]c2c(C)c(F)c(C3C(C#N)=C(C)N(C)C(C)=C3C#N)cc12: 8.47%
CN1CCN(c2cnc3c(C4CCN(C(=O)c5ccc(OC(F)(F)F)cc5N)CC4)ncnc3c2)CC1: 4.63%
COc1ccc2cc(OCC3(C(=O)O)CN(C(=O)c4ccc(F)cc4)C3)ccc2c1: -2.51%
O=C(NCCCC1CCCCC1)c1ccc(CNC(=O)c2cnn(-c3ccccc3)c2C(F)(F)F)cc1: 23.2%
CN1CCN(c2ccnc(NCCc3ccccc3)n2)CC1: -20.8%

Series 5 — SMILES: CC(C)(C)c1cc(C=C(C#N)C#N)cc(Br)c1O; observed: enzyme activity; action: inhibitor; tested at: 0.5 µM; measurement: remaining activity
Cyclin-dependent kinase 1, with cyclin B (CDK1, Homo sapiens, UniProt P06493): 72.6%
Calcium/calmodulin-dependent protein kinase type IV (CAMK4, Homo sapiens, UniProt Q16566); reference: control: 94.2%
Protein kinase C delta type (PRKCD, Homo sapiens, UniProt Q05655): 83%
Serine/threonine-protein kinase Nek11 (NEK11, Homo sapiens, UniProt Q8NG66): 87%
Serine/threonine-protein kinase PAK 3 (PAK3, Homo sapiens, UniProt O75914); reference: control: 96.9%
Vascular endothelial growth factor receptor 2 (KDR, Homo sapiens, UniProt P35968): 97.8%
PAS domain-containing serine/threonine-protein kinase (PASK, Homo sapiens, UniProt Q96RG2): 96.7%

Series 6 — cell line: mouse MPNST tumor cells; method: high-content nuclear imaging; item: cell number; tested at: 10 µM; time: 12 h; setting: mean of 2 replicates; reference: plate mean; reading: higher = more cells; measurement: nuclei count
Cc1cccc(C)c1NC(=O)CN1CCCC1=O: 0.26 z-score
CC(C)(C)OC(=O)c1ncn2c1[C@@H]1CCCN1C(=O)c1c(Br)cccc1-2: 3.97 z-score
Cn1ncnc1COc1nn2c(-c3c(F)cccc3F)nnc2cc1C1CCC1: 0.314 z-score
CCn1cnc2c(Nc3cccc(Cl)c3)nc(N[C@@H]3CCCC[C@@H]3N)nc21: -4.91 z-score
O=C(O)c1nn(Cc2ccc(Cl)cc2Cl)c2ccccc12: 2.55 z-score

Single results of other studies — observed: enzyme activity; action: inhibitor; method: ADP detection; tested at: 10 µM
Target: Calcium/calmodulin-dependent protein kinase type II subunit alpha (CAMK2A, Homo sapiens, UniProt Q9UQM7)
Sequence of UniProt Q9UQM7 (whole entry, looked up): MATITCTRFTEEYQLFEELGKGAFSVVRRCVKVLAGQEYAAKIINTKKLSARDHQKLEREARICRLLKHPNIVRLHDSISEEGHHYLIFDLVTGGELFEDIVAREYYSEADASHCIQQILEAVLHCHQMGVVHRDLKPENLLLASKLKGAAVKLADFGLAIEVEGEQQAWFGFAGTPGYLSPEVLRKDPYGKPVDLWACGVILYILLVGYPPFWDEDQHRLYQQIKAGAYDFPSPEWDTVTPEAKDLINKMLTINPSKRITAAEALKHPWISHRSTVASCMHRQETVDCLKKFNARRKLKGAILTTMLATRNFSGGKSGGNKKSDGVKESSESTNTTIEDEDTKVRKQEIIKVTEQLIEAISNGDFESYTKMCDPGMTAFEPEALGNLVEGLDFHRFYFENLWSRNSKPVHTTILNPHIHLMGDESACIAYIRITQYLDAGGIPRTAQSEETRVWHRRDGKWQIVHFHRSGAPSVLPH
CN[C@@H]1C[C@H]2O[C@@](C)([C@@H]1OC)n1c3ccccc3c3c4c(c5c6ccccc6n2c5c31)C(=O)NC4
inhibition: > 80%

C[C@]12CC[C@@H]3c4ccc(OC(=O)N(CCCl)CCCl)cc4CC[C@H]3[C@@H]1CC[C@@H]2OP(=O)(O)O
inhibition: -12%

A few entries again (series 4):
Cc1ccc(-c2cnc([C@@]3(O)CC[C@H](C(=O)O)C(C)(C)C3)s2)cc1Nc1cccc(C(F)(F)F)n1: 18.6%
C[C@@H](c1cccc(C#N)c1)n1cc(Cl)cc(C(N)=O)c1=N: 16.1%
C[C@H](c1ccc(F)cc1)N(Cc1cccc(C(=O)O)c1)C(=O)c1cnc2ccccc2c1: -1.69%
CC(=O)Nc1ncc(CN2CCC[C@H](Cc3cc(C)nc(C)c3)C2)s1: 7.69%
